Measurements from different studies.
Numbered parts are unrelated; each lists some results of a single study.

Study 1
Target: Phosphate system positive regulatory protein PHO4, full length, GST-tagged (PHO4, Saccharomyces cerevisiae, UniProt P07270, residues 1-312)
Method: competition protein-binding microarray
Form: double-stranded DNA, one strand shown
Medium: in vitro
Concentration: 2 µM
Notes: whole 60-bp probe, lowest competitor level
Added: Cbf1 competitor, 0.05 µM
Reading: higher = stronger binding
Residues (chain): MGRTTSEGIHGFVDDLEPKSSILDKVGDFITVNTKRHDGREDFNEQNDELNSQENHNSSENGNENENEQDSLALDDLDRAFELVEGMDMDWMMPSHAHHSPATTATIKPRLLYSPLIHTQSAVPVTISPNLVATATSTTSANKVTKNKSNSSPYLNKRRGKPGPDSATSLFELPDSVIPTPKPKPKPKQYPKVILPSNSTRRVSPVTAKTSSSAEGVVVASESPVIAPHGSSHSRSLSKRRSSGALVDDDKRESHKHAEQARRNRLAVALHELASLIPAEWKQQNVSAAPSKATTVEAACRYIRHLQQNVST
Sequence	fluorescence intensity [a.u.]
GTCTTGTCTCATTGACACGTGGGTGTCCCCACTTCAGTCTTGATTCGCTTGACGCTGCTG	16000
CGTCCTAGTGATTGTAGGGTGGGTGCCATGAGGAAGGTCTTGATTCGCTTGACGCTGCTG	6970
GTTGAATAAAGATTTCACGTGACTCGAGCTGGTCTTGTCTTGATTCGCTTGACGCTGCTG	9710
AAATTACTAAGTTTCCACGTGTTTTACCCCGTATGAGTCTTGATTCGCTTGACGCTGCTG	16200

Study 2
Target: Histone acetyltransferase KAT6A, both winged helices, GST fusion (KAT6A, Homo sapiens, UniProt Q92794, residues 1-181)
Method: protein binding microarray
Form: double-stranded DNA, one strand shown
Medium: in vitro
Concentration: not given
Notes: 8-mer, flanks averaged, mean of 2 arrays, mostly near background
Reference: not given
Reading: higher = stronger binding
Residues (chain): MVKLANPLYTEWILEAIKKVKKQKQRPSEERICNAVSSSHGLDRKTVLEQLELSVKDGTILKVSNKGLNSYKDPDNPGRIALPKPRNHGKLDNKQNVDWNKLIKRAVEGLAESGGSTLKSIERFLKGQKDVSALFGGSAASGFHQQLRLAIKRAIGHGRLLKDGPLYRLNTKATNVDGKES
Sequence	E-score
CGCATTCA	0.155
GAGACAGC	8e-05
AATTGGAG	-0.213
ACGAGTTG	-0.137

Study 3
Target: Sal-like protein 4, full length isoform A (SALL4, Homo sapiens, UniProt Q9UJQ4, residues 1-1053)
UniProt Q9UJQ4, sequence (whole entry, looked up): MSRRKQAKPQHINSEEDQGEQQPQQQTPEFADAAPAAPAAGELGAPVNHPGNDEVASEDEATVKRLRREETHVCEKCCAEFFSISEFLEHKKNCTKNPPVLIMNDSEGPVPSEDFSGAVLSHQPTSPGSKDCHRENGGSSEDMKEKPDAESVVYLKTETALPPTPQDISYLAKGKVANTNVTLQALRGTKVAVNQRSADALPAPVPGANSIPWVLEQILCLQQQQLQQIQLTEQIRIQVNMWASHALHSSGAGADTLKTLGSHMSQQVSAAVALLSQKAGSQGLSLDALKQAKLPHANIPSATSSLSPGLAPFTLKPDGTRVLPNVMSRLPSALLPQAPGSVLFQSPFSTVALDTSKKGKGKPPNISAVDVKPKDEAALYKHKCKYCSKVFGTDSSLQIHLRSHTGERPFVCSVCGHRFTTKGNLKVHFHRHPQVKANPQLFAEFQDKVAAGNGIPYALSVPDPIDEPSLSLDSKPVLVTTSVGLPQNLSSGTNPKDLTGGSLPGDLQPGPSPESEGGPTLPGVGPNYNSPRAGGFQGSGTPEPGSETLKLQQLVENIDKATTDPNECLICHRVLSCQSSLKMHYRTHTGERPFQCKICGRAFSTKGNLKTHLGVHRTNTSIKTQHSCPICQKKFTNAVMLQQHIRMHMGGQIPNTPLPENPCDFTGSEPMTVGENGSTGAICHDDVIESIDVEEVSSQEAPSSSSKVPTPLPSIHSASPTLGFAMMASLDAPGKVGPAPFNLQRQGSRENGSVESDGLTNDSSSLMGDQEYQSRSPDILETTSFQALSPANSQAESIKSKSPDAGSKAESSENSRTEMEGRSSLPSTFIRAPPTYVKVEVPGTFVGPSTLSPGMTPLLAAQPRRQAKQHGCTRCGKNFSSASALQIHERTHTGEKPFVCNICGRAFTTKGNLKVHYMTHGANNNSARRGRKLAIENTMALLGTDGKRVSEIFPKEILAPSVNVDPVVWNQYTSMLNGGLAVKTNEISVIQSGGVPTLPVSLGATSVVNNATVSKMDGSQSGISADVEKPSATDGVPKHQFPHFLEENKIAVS
Method: universal PBM
Form: double-stranded DNA, one strand shown
Medium: in vitro
Concentration: 600 nM
Notes: 8-mer, flanks averaged, mean of replicates
Reading: higher = stronger binding
Sequence	E-score
CATACGGA	-0.0393
AGCACTTA	0.0954
TAAGCTAA	0.222
ATCTGACC	0.0586

Mixed results
Substance	target	assay	system	setting	scale	measurement	result
PhoQ, residues 284 288 289 292 302 303 TNSAEL	PhoP, residues 12 14 15 18 19 LHSVW (Escherichia coli, UniProt P23836)	Sort-seq, item: YFP reporter	E. coli	PhoQ-PhoP variant library, added: 10 µM Mg2+	reference: high Mg2+ state, higher = stronger signaling	fold induction	12.3

Repeated from above (study 2):
Sequence	E-score
GAGACAGC	8e-05
AATTGGAG	-0.213
